Measurements collected from several papers.
Numbered parts are unrelated; each lists some results of a single study. Several values in a cell are separate wells, animals, samples, runs or records.
UniProt P31645, sequence (whole entry, looked up): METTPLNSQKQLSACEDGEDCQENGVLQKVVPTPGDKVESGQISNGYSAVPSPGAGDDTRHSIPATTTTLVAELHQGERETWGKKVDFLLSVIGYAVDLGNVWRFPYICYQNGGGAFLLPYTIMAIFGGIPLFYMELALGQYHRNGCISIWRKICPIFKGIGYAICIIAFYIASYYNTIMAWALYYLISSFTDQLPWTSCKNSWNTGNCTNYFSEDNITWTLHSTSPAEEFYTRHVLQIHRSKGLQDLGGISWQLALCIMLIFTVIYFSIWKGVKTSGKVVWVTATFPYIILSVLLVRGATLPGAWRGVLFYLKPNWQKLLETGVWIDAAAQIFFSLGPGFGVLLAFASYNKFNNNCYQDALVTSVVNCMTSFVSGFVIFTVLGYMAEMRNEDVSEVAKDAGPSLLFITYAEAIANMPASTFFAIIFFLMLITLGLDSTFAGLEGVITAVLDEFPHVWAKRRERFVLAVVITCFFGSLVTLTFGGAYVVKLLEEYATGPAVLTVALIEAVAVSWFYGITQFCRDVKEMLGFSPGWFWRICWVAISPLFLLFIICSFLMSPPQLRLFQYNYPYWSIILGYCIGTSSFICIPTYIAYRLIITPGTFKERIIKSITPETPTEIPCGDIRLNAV
UniProt P47898, sequence (whole entry, looked up): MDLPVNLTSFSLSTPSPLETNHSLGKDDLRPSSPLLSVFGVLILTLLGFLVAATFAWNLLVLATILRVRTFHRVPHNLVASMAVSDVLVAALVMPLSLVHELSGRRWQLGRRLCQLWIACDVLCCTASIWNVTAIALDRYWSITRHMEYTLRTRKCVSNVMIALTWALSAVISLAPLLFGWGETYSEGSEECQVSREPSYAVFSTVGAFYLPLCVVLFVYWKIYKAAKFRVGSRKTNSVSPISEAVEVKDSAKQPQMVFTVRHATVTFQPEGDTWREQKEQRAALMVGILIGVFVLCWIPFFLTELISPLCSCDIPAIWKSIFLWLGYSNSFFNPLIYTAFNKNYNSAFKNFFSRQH
UniProt P46098, sequence (whole entry, looked up): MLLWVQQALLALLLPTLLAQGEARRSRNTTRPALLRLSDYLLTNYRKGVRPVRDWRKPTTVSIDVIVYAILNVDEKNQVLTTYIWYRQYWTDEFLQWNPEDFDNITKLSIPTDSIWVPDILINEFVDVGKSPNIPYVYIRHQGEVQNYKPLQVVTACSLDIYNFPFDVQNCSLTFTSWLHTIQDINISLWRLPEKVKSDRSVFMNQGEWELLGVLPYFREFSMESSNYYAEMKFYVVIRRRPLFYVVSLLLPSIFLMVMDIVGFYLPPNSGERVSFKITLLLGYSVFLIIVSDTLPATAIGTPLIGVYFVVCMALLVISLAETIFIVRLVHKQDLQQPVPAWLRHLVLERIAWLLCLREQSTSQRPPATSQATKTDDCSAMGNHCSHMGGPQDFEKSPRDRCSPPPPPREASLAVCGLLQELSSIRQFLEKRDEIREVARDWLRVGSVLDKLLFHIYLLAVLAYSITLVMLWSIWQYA
UniProt P08172, sequence (whole entry, looked up): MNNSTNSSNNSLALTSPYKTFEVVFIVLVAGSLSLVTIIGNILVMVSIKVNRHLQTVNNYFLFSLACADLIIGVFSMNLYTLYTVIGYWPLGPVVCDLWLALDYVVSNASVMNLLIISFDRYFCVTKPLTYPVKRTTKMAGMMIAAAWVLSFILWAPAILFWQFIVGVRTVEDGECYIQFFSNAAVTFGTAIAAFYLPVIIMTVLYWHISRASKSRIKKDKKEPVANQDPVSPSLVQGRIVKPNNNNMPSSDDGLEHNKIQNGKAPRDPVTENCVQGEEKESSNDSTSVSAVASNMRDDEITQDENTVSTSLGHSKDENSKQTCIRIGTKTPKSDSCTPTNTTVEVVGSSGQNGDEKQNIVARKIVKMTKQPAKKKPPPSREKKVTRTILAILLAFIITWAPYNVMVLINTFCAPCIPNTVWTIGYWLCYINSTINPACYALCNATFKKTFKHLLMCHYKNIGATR
UniProt P13945, sequence (whole entry, looked up): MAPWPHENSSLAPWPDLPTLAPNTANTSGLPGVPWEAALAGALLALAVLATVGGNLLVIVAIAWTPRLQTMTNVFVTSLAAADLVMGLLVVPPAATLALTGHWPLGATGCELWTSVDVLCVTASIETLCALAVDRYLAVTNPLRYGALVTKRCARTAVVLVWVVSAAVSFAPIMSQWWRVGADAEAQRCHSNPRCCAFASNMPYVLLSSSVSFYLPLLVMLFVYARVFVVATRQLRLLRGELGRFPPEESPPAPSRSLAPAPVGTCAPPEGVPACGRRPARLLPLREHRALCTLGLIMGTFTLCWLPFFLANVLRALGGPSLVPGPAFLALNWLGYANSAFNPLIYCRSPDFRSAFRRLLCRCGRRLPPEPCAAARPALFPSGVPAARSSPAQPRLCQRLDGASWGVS
UniProt P08173, sequence (whole entry, looked up): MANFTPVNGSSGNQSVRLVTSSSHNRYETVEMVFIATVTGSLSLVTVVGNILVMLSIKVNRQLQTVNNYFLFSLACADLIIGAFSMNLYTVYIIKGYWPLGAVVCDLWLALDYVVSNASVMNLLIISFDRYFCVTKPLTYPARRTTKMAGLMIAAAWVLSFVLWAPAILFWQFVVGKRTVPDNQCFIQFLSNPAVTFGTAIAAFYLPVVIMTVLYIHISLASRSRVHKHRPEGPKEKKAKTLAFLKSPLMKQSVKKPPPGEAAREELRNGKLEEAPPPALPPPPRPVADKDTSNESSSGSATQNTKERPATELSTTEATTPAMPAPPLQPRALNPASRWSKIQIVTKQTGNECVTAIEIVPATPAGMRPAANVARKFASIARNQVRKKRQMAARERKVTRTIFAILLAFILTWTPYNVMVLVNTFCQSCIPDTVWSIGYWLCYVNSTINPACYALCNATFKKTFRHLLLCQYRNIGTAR
UniProt P25100, sequence (whole entry, looked up): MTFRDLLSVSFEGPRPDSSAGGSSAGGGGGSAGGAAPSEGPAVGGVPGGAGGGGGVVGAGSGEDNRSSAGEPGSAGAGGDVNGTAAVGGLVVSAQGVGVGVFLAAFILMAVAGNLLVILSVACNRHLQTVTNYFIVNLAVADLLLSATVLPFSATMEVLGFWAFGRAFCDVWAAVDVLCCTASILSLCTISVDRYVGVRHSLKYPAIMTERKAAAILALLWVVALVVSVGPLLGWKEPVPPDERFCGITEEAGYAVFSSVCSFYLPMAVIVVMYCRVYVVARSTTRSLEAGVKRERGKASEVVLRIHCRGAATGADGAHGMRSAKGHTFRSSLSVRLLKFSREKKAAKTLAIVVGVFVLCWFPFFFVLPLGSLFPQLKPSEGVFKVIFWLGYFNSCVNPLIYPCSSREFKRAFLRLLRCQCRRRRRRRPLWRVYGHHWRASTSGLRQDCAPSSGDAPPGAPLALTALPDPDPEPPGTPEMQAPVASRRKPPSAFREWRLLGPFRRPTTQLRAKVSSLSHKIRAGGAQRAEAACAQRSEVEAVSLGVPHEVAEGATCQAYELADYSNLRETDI
UniProt P18089, sequence (whole entry, looked up): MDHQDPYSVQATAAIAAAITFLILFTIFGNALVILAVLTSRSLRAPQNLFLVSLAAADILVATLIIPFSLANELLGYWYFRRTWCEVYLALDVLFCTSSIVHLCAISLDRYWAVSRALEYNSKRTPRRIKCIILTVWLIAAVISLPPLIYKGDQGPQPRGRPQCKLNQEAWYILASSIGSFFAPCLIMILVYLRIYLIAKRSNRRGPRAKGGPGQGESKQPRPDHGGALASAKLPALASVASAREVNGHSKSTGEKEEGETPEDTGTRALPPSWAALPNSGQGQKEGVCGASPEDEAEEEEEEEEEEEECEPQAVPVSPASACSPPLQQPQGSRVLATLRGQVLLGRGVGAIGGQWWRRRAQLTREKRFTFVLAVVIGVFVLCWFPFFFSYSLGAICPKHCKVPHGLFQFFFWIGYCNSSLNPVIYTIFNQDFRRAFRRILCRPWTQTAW
UniProt P18825, sequence (whole entry, looked up): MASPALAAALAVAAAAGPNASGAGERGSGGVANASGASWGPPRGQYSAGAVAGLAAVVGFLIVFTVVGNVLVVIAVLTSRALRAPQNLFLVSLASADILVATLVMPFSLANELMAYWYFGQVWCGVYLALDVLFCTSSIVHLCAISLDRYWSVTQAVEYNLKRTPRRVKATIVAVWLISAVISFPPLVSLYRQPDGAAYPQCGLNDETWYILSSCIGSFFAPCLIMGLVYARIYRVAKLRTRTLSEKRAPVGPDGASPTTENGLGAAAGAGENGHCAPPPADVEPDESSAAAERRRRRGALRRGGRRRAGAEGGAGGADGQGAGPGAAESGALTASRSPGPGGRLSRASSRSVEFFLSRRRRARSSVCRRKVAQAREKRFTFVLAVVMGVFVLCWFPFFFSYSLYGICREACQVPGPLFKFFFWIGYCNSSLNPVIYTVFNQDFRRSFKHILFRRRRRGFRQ
UniProt Q01959, sequence (whole entry, looked up): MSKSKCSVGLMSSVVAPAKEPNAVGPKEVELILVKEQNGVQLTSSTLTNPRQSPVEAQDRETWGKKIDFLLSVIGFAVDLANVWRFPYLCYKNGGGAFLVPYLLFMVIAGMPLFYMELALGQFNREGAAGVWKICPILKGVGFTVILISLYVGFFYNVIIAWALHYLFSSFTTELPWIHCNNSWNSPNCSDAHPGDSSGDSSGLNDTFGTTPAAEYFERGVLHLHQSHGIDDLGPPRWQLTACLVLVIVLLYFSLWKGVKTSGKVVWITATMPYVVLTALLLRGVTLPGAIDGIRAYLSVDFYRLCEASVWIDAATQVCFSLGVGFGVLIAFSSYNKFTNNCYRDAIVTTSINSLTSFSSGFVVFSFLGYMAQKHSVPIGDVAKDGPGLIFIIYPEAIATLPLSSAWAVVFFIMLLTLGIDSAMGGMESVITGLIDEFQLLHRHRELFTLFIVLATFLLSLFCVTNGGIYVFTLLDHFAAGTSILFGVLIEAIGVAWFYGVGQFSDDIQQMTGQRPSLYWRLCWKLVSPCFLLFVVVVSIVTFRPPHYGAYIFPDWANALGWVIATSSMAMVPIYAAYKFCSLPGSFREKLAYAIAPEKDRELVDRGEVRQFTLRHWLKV

Set 1
Structure (SMILES): Cn1cncc1[C@](O)(COc1ccc(C#N)cc1-c1ccc(OC(F)(F)F)cc1)c1ccc(C#N)cc1
Observed: binding
Technique: radioligand binding
Tested at: 10 µM
| target | inhibition [%] |
| --- | --- |
| OPRM1 (Homo sapiens, UniProt P35372) | 16.4 |
| HRH2 (Homo sapiens, UniProt P25021) | 14.5 |
| HTR3A (Homo sapiens, UniProt P46098) | 17.6 |
| ADRB3 (Homo sapiens, UniProt P13945) | 32.9 |
| SLC6A4 (Homo sapiens, UniProt P31645) | 1.25 |
| HTR5A (Homo sapiens, UniProt P47898) | 1.81 |
| CHRM4 (Homo sapiens, UniProt P08173) | 6.81 |
| HTR7 (Homo sapiens, UniProt P34969) | 9.15 |
| CHRM3 (Homo sapiens, UniProt P20309) | 23.3 |
| ADRA2B (Homo sapiens, UniProt P18089) | 8.46 |
| ADRA1D (Homo sapiens, UniProt P25100) | -8.65 |
| DRD1 (Homo sapiens, UniProt P21728) | 4.35 |
| CHRM2 (Homo sapiens, UniProt P08172) | -1.19 |
| HRH1 (Homo sapiens, UniProt P35367) | 88.7 |
| SLC6A3 (Homo sapiens, UniProt Q01959) | 9.99 |
| ADRA1B (Homo sapiens, UniProt P35368) | 16.6 |
| DRD5 (Homo sapiens, UniProt P21918) | 4.79 |
| HRH4 (Homo sapiens, UniProt Q9H3N8) | -6.36 |
| SLC6A2 (Homo sapiens, UniProt P23975) | 21.7 |
| ADRA2C (Homo sapiens, UniProt P18825) | 5 |

Set 2
Organism: Vesicular stomatitis virus
Observed: pseudovirus infection
Technique: FDA-approved drug library screen
Tested at: concentration not given
Notes: VSV-G control pseudotype
Baseline: vehicle
| SMILES | GFP-positive cells [%] |
| --- | --- |
| CN[C@H]1C(=O)N[C@@H]2Cc3ccc(cc3)Oc3cc4cc(c3O[C@@H]3O[C@H](C(=O)O)[C@@H](O)[C@H](O)[C@H]3NC(=O)CCCCCCCCC(C)C)Oc3ccc(cc3Cl)[C@@H](O)[C@@H]3NC(=O)[C@H](NC(=O)[C@@H]4NC(=O)[C@@H](NC2=O)c2cc(cc(O)c2Cl)Oc2cc1ccc2O)c1ccc(O)c(c1)-c1c(O[C@H]2O[C@H](CO)[C@@H](O)[C@H](O)[C@@H]2O)cc(O)cc1[C@@H](C(=O)O)NC3=O | 58.8 |
| C=CCN1CC[C@]23c4c5ccc(O)c4O[C@H]2[C@@H](OCCOCCOCCOCCOCCOCCOCCOC)CC[C@@]3(O)[C@H]1C5.O=C(O)C(=O)O | 114 |
| C[C@]1(Cn2ccnn2)[C@H](C(=O)O)N2C(=O)C[C@H]2S1(=O)=O | 98.3 |
| S=P(N1CC1)(N1CC1)N1CC1 | 108 |
| C=C1c2c(Cl)ccc(O)c2C(=O)C2=C(O)[C@]3(O)C(=O)C(C(N)=O)=C(O)[C@@H](N(C)C)[C@@H]3[C@@H](O)[C@H]12.O=C(O)c1cc(S(=O)(=O)O)ccc1O | 93 |
| COc1ccc(C[C@@H](C)NC[C@H](O)c2ccc(O)c(NC=O)c2)cc1.COc1ccc(C[C@@H](C)NC[C@H](O)c2ccc(O)c(NC=O)c2)cc1.O=C(O)/C=C/C(=O)O | 126 |
| Br.COc1ccc2c(c1)[C@]13CCCC[C@@H]1[C@H](C2)N(C)CC3.O | 137 |
| Cc1cc(C2CCCCC2)n(O)c(=O)c1.NCCO | 56.3 |
| CCCC(=O)OCOC(=O)C1=C(C)NC(C)=C(C(=O)OC)C1c1cccc(Cl)c1Cl (stereo not shown) | 86 |
| CNC(=C[N+](=O)[O-])NCCSCc1ccc(CN(C)C)o1.Cl | 94.5 |
| Cc1ccc(/C(=C\CN2CCCC2)c2ccccn2)cc1.Cl | 103 |
| Cc1nc2n(c(=O)c1CCN1CCC(c3noc4cc(F)ccc34)CC1)CCCC2 | 88.4 |
| Cc1onc(-c2ccccc2Cl)c1C(=O)N[C@@H]1C(=O)N2[C@@H]1SC(C)(C)[C@@H]2C(=O)[O-].O.[Na+] | 88.4 |
| O=C([O-])c1cc(/N=N/c2ccc(O)c(C(=O)[O-])c2)ccc1O.[Na+].[Na+] | 89.1 |
| S=c1nc[nH]c2nc[nH]c12 | 98.3 |
| COc1cc2c(cc1OC)C1CC(=O)C(CC(C)C)CN1CC2 (stereo not shown) | 109 |
| CCC(=O)Oc1ccc2c(c1)CC[C@@H]1[C@@H]2CC[C@]2(C)[C@@H](OC(=O)CC)CC[C@@H]12 | 120 |
| COCCCOc1ccnc(CSc2nc3ccccc3[nH]2)c1C | 121 |
| CC(C)NCC(O)COc1ccc(COCCOC(C)C)cc1.CC(C)NCC(O)COc1ccc(COCCOC(C)C)cc1.O=C(O)/C=C/C(=O)O (racemic) | 107 |
| CC[C@@H]1C(=O)OC[C@@H]1Cc1cncn1C.Cl | 105 |
| NC(=O)N/N=C/c1ccc([N+](=O)[O-])o1 | 92.5 |

Set 3
Target: chymotrypsin
Observed: enzyme activity
Action: inhibitor
Tested at: 10 µM
Notes: with DTT
| Compound | inhibition [%] |
| --- | --- |
| COc1ccnc(C[S+]([O-])c2nc3ccc(OC(F)F)cc3[nH]2)c1OC (stereo not shown) | 8.3 |
| Cc1cc(-c2ccc(/C=C3/SC(Nc4ccc(Cl)c(C(=O)O)c4)=NC3=O)o2)c([N+](=O)[O-])cc1C | 3.3 |
| CN(C)S(=O)(=O)c1cccc(-n2sc3ccccc3c2=O)c1 | 3.2 |
| CN1CCN(C(=O)c2ccc(-c3ccc4c(C=O)c(O)ccc4c3)s2)CC1 | 9.7 |
| O=C(O)c1ccccc1-c1c2cc(Br)c(=O)cc-2oc2[c]([Hg][OH])c(O)c(Br)cc12 | 10.5 |
| O=C(O)[C@@H](S)[C@@H](S)C(=O)O | 8.4 |
| CCOC(=O)Cc1ccc(-c2ccccc2)cc1 | -0.9 |
| C[C@@H](CN1CC(=O)NC(=O)C1)N1CC(=O)NC(=O)C1 | 3.5 |
| O=c1cc(-c2ccccc2)oc2cc(O)c(O)c(O)c12 | 11.1 |
| O=C(CCl)c1ccccc1 | 7.8 |

Single results of other studies
| SMILES | target | observed | action | technique | baseline | measurement | value |
| --- | --- | --- | --- | --- | --- | --- | --- |
| CN(C(=O)c1ccn2ncc(-c3ccc(C(N)=O)cc3)c2c1)c1ccc(C#N)cn1 | C. parvum PI4K Y907A | enzyme activity | inhibitor | ADP-Glo | mutant over wild type | fold IC50 shift | 18.2 and 24.5 |

Repeated from above (set 2):
| SMILES | GFP-positive cells [%] |
| --- | --- |
| S=P(N1CC1)(N1CC1)N1CC1 | 108 |
| C=C1c2c(Cl)ccc(O)c2C(=O)C2=C(O)[C@]3(O)C(=O)C(C(N)=O)=C(O)[C@@H](N(C)C)[C@@H]3[C@@H](O)[C@H]12.O=C(O)c1cc(S(=O)(=O)O)ccc1O | 93 |
| COc1ccc(C[C@@H](C)NC[C@H](O)c2ccc(O)c(NC=O)c2)cc1.COc1ccc(C[C@@H](C)NC[C@H](O)c2ccc(O)c(NC=O)c2)cc1.O=C(O)/C=C/C(=O)O | 126 |
| Br.COc1ccc2c(c1)[C@]13CCCC[C@@H]1[C@H](C2)N(C)CC3.O | 137 |
| Cc1cc(C2CCCCC2)n(O)c(=O)c1.NCCO | 56.3 |
| CCCC(=O)OCOC(=O)C1=C(C)NC(C)=C(C(=O)OC)C1c1cccc(Cl)c1Cl (stereo not shown) | 86 |
| CNC(=C[N+](=O)[O-])NCCSCc1ccc(CN(C)C)o1.Cl | 94.5 |
